Results of several laboratories.
Lines come from different studies, so protocols differ. ± gives the spread as reported.
Uncharacterized protein: Uncharacterized protein (Equus caballus, UniProt Q38RB9)
Cytochrome P450 2A13: Cytochrome P450 2A13 (Homo sapiens, UniProt Q16696)
UniProt Q16696, sequence (whole entry, looked up): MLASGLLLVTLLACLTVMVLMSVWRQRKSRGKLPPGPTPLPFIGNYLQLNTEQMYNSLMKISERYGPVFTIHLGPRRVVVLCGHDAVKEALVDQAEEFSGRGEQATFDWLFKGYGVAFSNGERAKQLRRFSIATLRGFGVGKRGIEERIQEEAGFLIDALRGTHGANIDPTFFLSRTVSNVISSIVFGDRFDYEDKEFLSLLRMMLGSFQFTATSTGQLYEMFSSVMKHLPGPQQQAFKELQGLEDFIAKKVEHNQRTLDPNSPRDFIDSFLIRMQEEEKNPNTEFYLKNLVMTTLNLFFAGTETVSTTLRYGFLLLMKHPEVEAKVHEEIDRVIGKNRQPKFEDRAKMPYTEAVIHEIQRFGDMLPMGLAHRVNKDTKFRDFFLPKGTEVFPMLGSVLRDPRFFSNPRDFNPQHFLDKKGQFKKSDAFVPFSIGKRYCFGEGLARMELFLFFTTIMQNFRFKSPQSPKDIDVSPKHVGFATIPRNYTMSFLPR
gag-pol reverse transcriptase: Gag-Pol polyprotein, reverse transcriptase (gag-pol, Human immunodeficiency virus 1, UniProt P03366)
SCRIB PDZ3 domain: Protein scribble homolog, PDZ3 domain (SCRIB, Homo sapiens, UniProt Q14160)
UniProt Q00987, sequence (whole entry, looked up): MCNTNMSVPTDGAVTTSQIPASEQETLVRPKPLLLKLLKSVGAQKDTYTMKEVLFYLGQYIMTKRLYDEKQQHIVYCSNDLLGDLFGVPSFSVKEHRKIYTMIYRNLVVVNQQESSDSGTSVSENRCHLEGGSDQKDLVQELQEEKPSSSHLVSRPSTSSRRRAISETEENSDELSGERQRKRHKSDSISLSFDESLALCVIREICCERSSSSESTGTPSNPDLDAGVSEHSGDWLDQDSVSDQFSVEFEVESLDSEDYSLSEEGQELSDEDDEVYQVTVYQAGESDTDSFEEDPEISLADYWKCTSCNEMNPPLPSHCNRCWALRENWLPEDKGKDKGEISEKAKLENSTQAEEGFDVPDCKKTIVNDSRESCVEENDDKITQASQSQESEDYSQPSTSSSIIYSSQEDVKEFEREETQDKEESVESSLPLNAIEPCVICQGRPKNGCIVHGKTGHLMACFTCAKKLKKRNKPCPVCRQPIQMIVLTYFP
UniProt Q14160, sequence (whole entry, looked up): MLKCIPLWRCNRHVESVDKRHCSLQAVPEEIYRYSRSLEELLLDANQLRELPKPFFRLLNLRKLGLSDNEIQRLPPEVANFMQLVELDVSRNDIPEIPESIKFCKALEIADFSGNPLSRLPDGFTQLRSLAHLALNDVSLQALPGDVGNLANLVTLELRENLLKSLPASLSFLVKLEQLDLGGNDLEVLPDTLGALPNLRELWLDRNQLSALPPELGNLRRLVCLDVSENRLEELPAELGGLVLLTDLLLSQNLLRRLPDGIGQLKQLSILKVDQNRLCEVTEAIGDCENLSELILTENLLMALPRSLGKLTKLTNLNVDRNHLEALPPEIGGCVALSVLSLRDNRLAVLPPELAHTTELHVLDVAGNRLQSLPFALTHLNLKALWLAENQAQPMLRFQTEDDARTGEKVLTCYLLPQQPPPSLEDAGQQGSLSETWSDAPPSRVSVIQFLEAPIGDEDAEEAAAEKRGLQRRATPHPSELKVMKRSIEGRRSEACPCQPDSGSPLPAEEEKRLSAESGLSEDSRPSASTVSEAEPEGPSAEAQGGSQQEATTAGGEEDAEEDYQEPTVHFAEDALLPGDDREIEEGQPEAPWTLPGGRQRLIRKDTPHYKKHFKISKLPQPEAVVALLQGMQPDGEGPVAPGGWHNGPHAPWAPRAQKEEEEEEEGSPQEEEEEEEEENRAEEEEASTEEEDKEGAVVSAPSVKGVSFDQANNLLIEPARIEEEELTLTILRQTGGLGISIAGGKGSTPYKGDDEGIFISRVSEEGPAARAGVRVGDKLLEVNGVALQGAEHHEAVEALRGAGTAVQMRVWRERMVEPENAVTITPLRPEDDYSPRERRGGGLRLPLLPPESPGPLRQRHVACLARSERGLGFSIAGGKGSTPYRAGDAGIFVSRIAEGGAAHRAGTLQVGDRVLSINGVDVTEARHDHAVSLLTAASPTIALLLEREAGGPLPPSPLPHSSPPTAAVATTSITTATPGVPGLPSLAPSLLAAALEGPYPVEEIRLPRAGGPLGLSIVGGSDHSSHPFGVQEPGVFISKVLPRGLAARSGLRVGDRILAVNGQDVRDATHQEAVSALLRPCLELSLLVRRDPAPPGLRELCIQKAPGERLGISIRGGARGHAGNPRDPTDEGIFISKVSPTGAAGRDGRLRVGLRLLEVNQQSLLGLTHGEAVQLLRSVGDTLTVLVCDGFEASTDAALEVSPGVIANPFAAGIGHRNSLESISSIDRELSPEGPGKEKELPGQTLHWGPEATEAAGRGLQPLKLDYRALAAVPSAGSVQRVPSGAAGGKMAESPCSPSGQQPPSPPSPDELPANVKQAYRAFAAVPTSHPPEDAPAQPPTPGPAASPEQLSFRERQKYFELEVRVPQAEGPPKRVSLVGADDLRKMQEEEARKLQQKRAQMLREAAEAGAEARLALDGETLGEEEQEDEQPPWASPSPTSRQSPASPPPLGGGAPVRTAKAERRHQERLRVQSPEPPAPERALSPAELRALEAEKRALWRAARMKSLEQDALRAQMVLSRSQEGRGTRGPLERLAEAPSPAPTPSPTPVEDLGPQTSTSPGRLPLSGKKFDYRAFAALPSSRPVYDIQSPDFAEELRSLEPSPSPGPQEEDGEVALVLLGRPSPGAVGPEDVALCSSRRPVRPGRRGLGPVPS
UniProt P68402, sequence (whole entry, looked up): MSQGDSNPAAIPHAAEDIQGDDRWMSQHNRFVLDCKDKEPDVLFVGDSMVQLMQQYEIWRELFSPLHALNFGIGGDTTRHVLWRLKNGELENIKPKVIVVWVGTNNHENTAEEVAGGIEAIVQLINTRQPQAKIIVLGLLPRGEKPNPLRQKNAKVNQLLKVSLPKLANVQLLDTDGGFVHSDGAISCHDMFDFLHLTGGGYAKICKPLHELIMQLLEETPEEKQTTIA
UniProt Q99436, sequence (whole entry, looked up): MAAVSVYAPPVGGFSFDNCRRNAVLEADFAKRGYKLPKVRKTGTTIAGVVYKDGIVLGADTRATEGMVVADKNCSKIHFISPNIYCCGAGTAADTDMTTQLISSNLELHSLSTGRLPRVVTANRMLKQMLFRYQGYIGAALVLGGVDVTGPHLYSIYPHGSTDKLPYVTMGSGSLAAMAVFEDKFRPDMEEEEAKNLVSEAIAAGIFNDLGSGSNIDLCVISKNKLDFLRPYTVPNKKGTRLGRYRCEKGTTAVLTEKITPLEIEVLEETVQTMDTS
UniProt P32745, sequence (whole entry, looked up): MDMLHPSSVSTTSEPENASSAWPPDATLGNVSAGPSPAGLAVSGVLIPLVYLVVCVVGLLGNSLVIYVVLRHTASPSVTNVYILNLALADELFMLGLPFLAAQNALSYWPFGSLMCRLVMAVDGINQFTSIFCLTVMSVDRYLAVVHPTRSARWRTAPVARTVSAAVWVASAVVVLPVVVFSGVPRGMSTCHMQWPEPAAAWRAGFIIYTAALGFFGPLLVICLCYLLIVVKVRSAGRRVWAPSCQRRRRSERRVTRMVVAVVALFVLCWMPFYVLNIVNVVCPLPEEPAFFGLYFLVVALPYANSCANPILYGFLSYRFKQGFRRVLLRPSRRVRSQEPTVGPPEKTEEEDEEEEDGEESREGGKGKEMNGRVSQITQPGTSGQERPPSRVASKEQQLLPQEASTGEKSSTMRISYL
UniProt Q9UJS0, sequence (whole entry, looked up): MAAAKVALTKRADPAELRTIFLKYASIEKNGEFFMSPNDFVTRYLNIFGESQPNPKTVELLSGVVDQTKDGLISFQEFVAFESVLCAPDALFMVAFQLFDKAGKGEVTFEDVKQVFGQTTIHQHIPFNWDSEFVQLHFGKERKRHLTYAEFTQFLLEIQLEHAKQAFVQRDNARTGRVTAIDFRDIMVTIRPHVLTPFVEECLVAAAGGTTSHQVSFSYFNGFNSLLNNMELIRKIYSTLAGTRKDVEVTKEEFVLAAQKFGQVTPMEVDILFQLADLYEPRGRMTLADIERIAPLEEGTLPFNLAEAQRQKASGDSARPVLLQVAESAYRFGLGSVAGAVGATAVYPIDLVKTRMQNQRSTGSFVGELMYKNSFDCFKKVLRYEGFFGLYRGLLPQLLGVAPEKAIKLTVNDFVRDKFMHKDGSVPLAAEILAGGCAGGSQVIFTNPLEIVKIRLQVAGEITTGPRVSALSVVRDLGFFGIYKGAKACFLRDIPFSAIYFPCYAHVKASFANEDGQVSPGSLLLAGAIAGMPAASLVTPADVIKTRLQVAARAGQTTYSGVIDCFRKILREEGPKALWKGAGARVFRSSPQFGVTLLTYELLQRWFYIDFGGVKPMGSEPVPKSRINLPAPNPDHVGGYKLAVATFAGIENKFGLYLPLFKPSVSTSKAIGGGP
UniProt P21728, sequence (whole entry, looked up): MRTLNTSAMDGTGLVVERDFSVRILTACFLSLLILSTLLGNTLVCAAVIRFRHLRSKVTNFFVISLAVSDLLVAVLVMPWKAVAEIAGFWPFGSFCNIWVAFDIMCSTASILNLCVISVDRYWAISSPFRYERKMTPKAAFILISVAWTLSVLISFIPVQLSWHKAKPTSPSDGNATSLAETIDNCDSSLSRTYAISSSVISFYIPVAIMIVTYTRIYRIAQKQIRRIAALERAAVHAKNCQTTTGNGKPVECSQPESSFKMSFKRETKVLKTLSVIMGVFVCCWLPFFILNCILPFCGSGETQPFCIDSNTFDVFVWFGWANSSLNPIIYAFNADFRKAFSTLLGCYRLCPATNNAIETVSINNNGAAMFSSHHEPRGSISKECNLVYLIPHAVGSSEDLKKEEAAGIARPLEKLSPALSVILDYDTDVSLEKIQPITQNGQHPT
UniProt P14555, sequence (whole entry, looked up): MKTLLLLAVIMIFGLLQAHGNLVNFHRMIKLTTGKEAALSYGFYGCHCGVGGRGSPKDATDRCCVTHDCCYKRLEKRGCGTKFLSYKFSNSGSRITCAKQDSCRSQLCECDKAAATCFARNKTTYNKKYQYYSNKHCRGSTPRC

CO[C@H]1[C@H](O[C@H]([C@H]2O[C@@H](n3ccc(=O)[nH]c3=O)[C@H](O)[C@@H]2O)[C@H](NCCCNC(=O)[C@@H](NC(=O)[C@@H](NC(=O)N[C@H](C(=O)O)C(C)C)[C@@H]2CCN=C(N)N2)[C@@H](OC(=O)CCCCCCCCCCCCN(O)C(=N)N)C(C)C)C(=O)O)O[C@H](CN)[C@H]1O — IC50 (Undecaprenyl-phosphate alpha-N-acetylglucosaminyl 1-phosphate transferase (wecA, Escherichia coli, UniProt P0AC78); enzyme activity, inhibitor): 0.09 ± 0.018 µM
C[C@H]1CN(c2n[nH]c3nc(N[C@H]4CC[C@H](NS(=O)(=O)CCC(F)(F)F)CC4)ncc23)CCO1 — IC50 (WNK1 (Homo sapiens, UniProt Q9H4A3); biochemical): ≥ 20 µM
COP(=O)(OC1CCCCC1)OC1CCCCC1 — IC50 (had (Sphingobium sp. TCM1, UniProt A0A077JBW9)): 120 ± 10 µM
CC[C@H](C)[C@H](NC(=O)[C@@H]1CCCN1C(=O)[C@@H](NC(=O)[C@H](CC(=O)O)NC(=O)[C@@H](N)CCCNC(=N)N)[C@@H](C)CC)C(=O)N[C@H](C(=O)N[C@@H](Cc1c[nH]cn1)C(=O)N[C@@H](CCCNC(=N)N)C(=O)N[C@H](C(=O)O)C(C)C)C(C)C — IC50 (Uncharacterized protein; peptide binding, competitor, competitive radioligand binding; purified horse MHC class I; pH 7): 0.037 µM
CC#Cc1ccc2c(ccc3ccccc32)c1 — IC50 (Cytochrome P450 2A13; enzyme activity, inhibitor; 20 min, pH 7.4): > 180 µM
COC(=O)N1C(=O)[C@](c2ccccc2)(C2CCCC2)N1C(=O)OC — IC50 (Protein phosphatase methylesterase 1 (Homo sapiens, UniProt Q9Y570); enzyme activity, inhibitor; together with: FP-biotin 1 µM): 0.0122 µM
NC(=NCc1ccccc1)NC(=O)c1nc(Cl)c(N2CCCCCC2)nc1N — IC50 (Genome polyprotein, 3D RNA polymerase (Coxsackievirus B3, UniProt P03313); RNA polymerase activity, inhibitor, single AMP incorporation; Mg2+ preincubation): > 75 µM
COc1cc(Nc2ncc(F)c(Nc3ccc4c(n3)NC(=O)C(C)(C)O4)n2)cc(OC)c1OC — IC50 (SSTR3 (Homo sapiens, UniProt P32745)): > 10 µM
N=C(N)NCCC[C@@H]1NC(=O)[C@H](CCCCNC(=O)c2ccc(CNC34CNCCNCC(N)(CNCCNC3)CNCCNC4)cc2)NC(=O)[C@@H](Cc2ccc(O)cc2)NC(=O)[C@H](CC(=O)O)NC(=O)CNC1=O [copper-64 labelled] — tissue uptake (ex vivo gamma counting; male athymic nude mouse, PC-3 xenograft, PC-3 tumour; 7.4 MBq, 48 h, decay-corrected): 2.46 ± 1.03 %ID/g
O=C1CSC(c2ccc(F)cc2)N1c1nc(-c2ccc(S(=O)(=O)N3CCCC3)cc2)cs1 (stereo not shown) — IC50 (gag-pol reverse transcriptase): > 4 µM
CC[C@H](C)[C@H](NC(=O)[C@H](CCCCN)NC(=O)[C@@H](NC(=O)[C@H](CCC(N)=O)NC(=O)[C@H](C)NC(=O)CNC(=O)[C@H](CO)NC(=O)[C@H](CCSC)NC(=O)[C@H](CCC(N)=O)NC(=O)[C@@H](N)CCCNC(=N)N)[C@@H](C)CC)C(=O)O — IC50 (Uncharacterized protein; peptide binding, competitor, competitive radioligand binding; purified horse MHC class I; pH 7): 0.357 µM
COc1cc(C(=O)N2CC[C@@H](O)[C@@H](N)C2)cc2nc(-c3cc4ccccc4n3CC3CC3)n(C)c12 — IC50 (Glutamate NMDA receptor; GRIN1/GRIN2B (GRIN1/GRIN2B, Homo sapiens, UniProt Q05586+Q13224); antagonist, intracellular Ca2+ fluorescence): 15.8 µM
CCOC(=O)[C@H]1Cc2c(cc([N+](=O)[O-])cc2[N+](=O)[O-])[C@@H](O)[C@@]12C(=O)Nc1cc(Cl)ccc12 — IC50 (MDM2 (Homo sapiens, UniProt Q00987)): 0.79 ± 0.09 µM
COc1cccc(C2SCC(=O)N2c2nc(-c3ccc(S(=O)(=O)N4CCCC4)cc3)cs2)c1 (stereo not shown) — IC50 (gag-pol reverse transcriptase): > 4 µM
O=C(c1ccc(Cl)cc1)N1CCN2C(=O)N(OC(=O)N3CCOc4ccccc43)C(=O)C2C1 (stereo not shown) — mean protein ratio (Platelet-activating factor acetylhydrolase IB subunit alpha2 (Homo sapiens, UniProt P68402); MS-based ABPP; SW-620 conditioned medium; 10 µM, 1 h, 37 °C; reference: compound over DMSO, lower = more inhibition): 0.95
O=c1c2ccccc2[nH]c(=S)n1-c1ccccc1 — IC50 (Phospholipase A2, membrane associated (Homo sapiens, UniProt P14555); enzyme activity, inhibitor, colorimetric): 104 ± 8.34 µM
COc1cc2c(Oc3ccc4[nH]c(C)cc4c3F)ccnc2cc1OCC1(N)CC1 — grade 1 or 2 Tinnitus (paediatric recurrent refractory sarcoma; concentration not given, whole group): 5.9%
OC1C=Cc2c(ccc3ccc4ccccc4c23)C1O (stereo not shown) — IC50 (Cytochrome P450 2A13; enzyme activity, inhibitor; 20 min, pH 7.4): > 200 µM
CC[C@H](C)[C@H](NC(=O)[C@H](CC(C)C)NC(=O)[C@@H](NC(=O)[C@H](CCCCN)NC(=O)[C@@H](NC(=O)[C@@H](NC(=O)[C@H](CO)NC(=O)[C@H](CCC(N)=O)NC(=O)[C@@H](N)CO)[C@@H](C)O)C(C)C)C(C)C)C(=O)O — IC50 (Uncharacterized protein; peptide binding, competitor, competitive radioligand binding; purified horse MHC class I; pH 7): 0.65 µM
CO[C@]1([C@@H]2CSC(=O)N2C2CCCC2)C[C@H]2C[C@@H](CC[C@H](C)/C=C\C=C\CC/C(C)=C\C(=O)O2)O1 — IC50 (Actin, alpha skeletal muscle, pyrene-labeled (ACTA1, Oryctolagus cuniculus, UniProt P68135); actin polymerization, pyrene actin): 1.05 ± 0.271 µM
COc1ncccc1-c1cnn2ccc(N3CCN(C(=O)OC(C)C)CC3)nc12 — IC50 (DRD1 (Homo sapiens, UniProt P21728); liability screen): > 30 µM
COC(CNC(=O)c1ccccc1OCC(=O)O)[CH2][Hg][OH] (stereo not shown) — IC50 (SLC25A13 (Homo sapiens, UniProt Q9UJS0); aspartate/glutamate exchange; proteoliposomes; 1 min, together with: [14C]Asp 1 mM, Glu 20 mM inside): 0.3 ± 0.05 µM
CNC(C)Cc1ccc2n[se]nc2c1 (stereo not shown) — IC50 (SLC6A3 (Homo sapiens, UniProt Q01959)): 9.8 ± 2.2 µM
CC(C)C[C@H](NC(=O)[C@H](CO)NC(=O)[C@@H](NC(=O)[C@@H](NC(=O)[C@@H](NC(=O)[C@H](Cc1ccccc1)NC(=O)[C@@H](NC(=O)[C@H](CC(=O)O)NC(=O)[C@H](CCC(=O)O)NC(=O)[C@@H]1CCCN1)[C@@H](C)O)[C@@H](C)O)C(C)C)[C@@H](C)O)C(=O)O — Kd (SCRIB PDZ3 domain; binding, fluorescence polarization; solution; Scribble PDZ3 domain): 10.4 µM
O=[N+]([O-])c1cc(N2[C@@H]3CC[C@H]2COC3)ccc1NCc1ccc(CN2C[C@H](O)[C@@H](O)[C@H](O)[C@H]2CO)cc1 — IC50 (Ganab (Mus musculus, UniProt Q8BHN3); enzyme activity, inhibitor; together with: 4-methylumbelliferyl substrate): < 0.001 µM
O=C1CSC(c2ccc(F)cc2)N1c1nc(-c2ccc(S(=O)(=O)N3CCOCC3)cc2)cs1 (stereo not shown) — IC50 (gag-pol reverse transcriptase): > 4 µM
C#Cc1ccc2ccc3ccccc3c2c1 — IC50 (Cytochrome P450 2A13; enzyme activity, inhibitor; 20 min, pH 7.4): 0.4 to 10 µM
CC(=O)N[C@@H](CCCCN)C(=O)N[C@H](C(=O)N[C@@H](Cc1ccccc1)C(=O)N[C@H]1CSCCCCCCS[C@H]2C[C@@H](C(N)=O)N(C2)C(=O)NC[C@H](CC(C)C)NC(=O)NC[C@H](CC(C)C)NC(=O)[C@H](C)NC(=O)[C@H](Cc2c[nH]c3ccccc23)NC(=O)[C@H](Cc2ccc(O)cc2)NC(=O)[C@H](CCC(=O)O)NC1=O)[C@@H](C)O — IC50 (E3 ubiquitin-protein ligase Mdm2, with p53 (MDM2, Homo sapiens, UniProt Q00987); inhibitor): 0.00302 µM
CC(C)C[C@H](NC(=O)[C@@H](NC(=O)CNC(=O)[C@H](CC(N)=O)NC(=O)[C@H](CCCCN)NC(=O)[C@H](CO)NC(=O)[C@H](CC(=O)O)NC(=O)[C@H](Cc1ccc(O)cc1)NC(=O)[C@@H](N)CCCNC(=N)N)[C@@H](C)O)C(=O)N[C@H](C(=O)O)C(C)C — Kd (SCRIB PDZ3 domain; binding, fluorescence polarization; solution; Scribble PDZ3 domain): 26.5 µM
COc1ccc(C[C@H](NC(=O)[C@H](C)NC(=O)CN2CCOCC2)C(=O)N[C@@H](CC2CCC(C(F)(F)F)CC2)C(=O)[C@@]2(C)CO2)cc1 (stereo partly shown) — IC50 (PSMB7 (Homo sapiens, UniProt Q99436); inhibitor, competitive ABPP; Raji cell lysate; constitutive proteasome β2c): > 10 µM
c1ccc2c(c1)ccc1ccc3ccccc3c12 — IC50 (Cytochrome P450 2A13; enzyme activity, inhibitor; 20 min, pH 7.4): > 100 µM
CN1Cc2cc(Cl)ccc2-n2c(nnc2C2CCN(c3ccccn3)CC2)C1 — IC50 (Oxytocin receptor (OXTR, Homo sapiens, UniProt P30559); binding): > 10 µM
CC#Cc1cc2ccccc2c2ccccc12 — IC50 (Cytochrome P450 2A13; enzyme activity, inhibitor; 20 min, pH 7.4): > 180 µM
O=C1CSC(c2cccc(Cl)c2Cl)N1c1nc(-c2ccc(S(=O)(=O)N3CCCC3)cc2)cs1 (stereo not shown) — IC50 (gag-pol reverse transcriptase): > 4 µM

Excerpt of the above:
COC(CNC(=O)c1ccccc1OCC(=O)O)[CH2][Hg][OH] (stereo not shown) — IC50 (SLC25A13 (Homo sapiens, UniProt Q9UJS0); aspartate/glutamate exchange; proteoliposomes; 1 min, together with: [14C]Asp 1 mM, Glu 20 mM inside): 0.3 ± 0.05 µM
CNC(C)Cc1ccc2n[se]nc2c1 (stereo not shown) — IC50 (SLC6A3 (Homo sapiens, UniProt Q01959)): 9.8 ± 2.2 µM
CC(C)C[C@H](NC(=O)[C@H](CO)NC(=O)[C@@H](NC(=O)[C@@H](NC(=O)[C@@H](NC(=O)[C@H](Cc1ccccc1)NC(=O)[C@@H](NC(=O)[C@H](CC(=O)O)NC(=O)[C@H](CCC(=O)O)NC(=O)[C@@H]1CCCN1)[C@@H](C)O)[C@@H](C)O)C(C)C)[C@@H](C)O)C(=O)O — Kd (SCRIB PDZ3 domain; binding, fluorescence polarization; solution; Scribble PDZ3 domain): 10.4 µM
O=[N+]([O-])c1cc(N2[C@@H]3CC[C@H]2COC3)ccc1NCc1ccc(CN2C[C@H](O)[C@@H](O)[C@H](O)[C@H]2CO)cc1 — IC50 (Ganab (Mus musculus, UniProt Q8BHN3); enzyme activity, inhibitor; together with: 4-methylumbelliferyl substrate): < 0.001 µM
O=C1CSC(c2ccc(F)cc2)N1c1nc(-c2ccc(S(=O)(=O)N3CCOCC3)cc2)cs1 (stereo not shown) — IC50 (gag-pol reverse transcriptase): > 4 µM
C#Cc1ccc2ccc3ccccc3c2c1 — IC50 (Cytochrome P450 2A13; enzyme activity, inhibitor; 20 min, pH 7.4): 0.4 to 10 µM
